# Measured values collected from several papers.
# Protocols differ between the studies behind these lines. “And” joins repeats or separate records; there may be more than shown.
# Cell line: MDA-MB-231
SMILES,assay,setting,IC50
O=[N+]([O-])c1ccc(C=NNC(Nc2ccccc2)=[S+][Au-][Cl])o1,"cell growth or viability, resazurin",,68 µM
C[C@@H]1CC[C@@H]([C@](O)(CNCc2ccc(F)cc2)COCc2ccccc2)[C@H](OCc2ccccc2)C1,"cell growth or viability, MTT",72 h,15.4 µM
COc1cccc(N2C(=O)CS/C2=N\N=C\c2cccc3cc4ccccc4nc23)c1,"cell growth or viability, MTT",48 h,> 50 µM
CCCc1cc2cc(-n3nc(C4CC4)c4c3CC(C)(C)CC4=O)cc(N3CCC(O)CC3)c2c(=O)[nH]1,"cell growth or viability, MTS",,7.13 µM
COc1cc(S(=O)(=O)Oc2ccc3[nH]c(C)cc3c2F)cc(OC)c1OC,"cell growth or viability, fluorescence",5 days,0.00779 µM
O=C1CS/C(=N\N=C\c2cccc3cc4ccccc4nc23)N1c1ccc([N+](=O)[O-])cc1,"cell growth or viability, MTT",48 h,> 50 µM
C[C@H]1[C@H](C)CC[C@]2(C)CC[C@]3(C)C(=CC(=O)[C@@H]4[C@@]5(C)CC[C@@H](O)[C@](C)(C(=O)O)[C@@H]5CC[C@]43C)[C@H]12,"cell growth or viability, MTT",24 h,101 µM
CNS(=O)(=O)Nc1nccc(Cc2c(C)c3ccc(Oc4ncccc4F)cc3oc2=O)c1F,cell viability,7 days,0.144 µM
O=C(c1cccnc1)N1CCN(CC(OCc2ccc3ccccc3c2)c2ccc(Cl)cc2Cl)CC1 (centres unmarked),"cell growth or viability, MTT",24 h,26.5 µM
CC[C@H](C)/C=C/C=C/C(O)=C/C(=O)C(F)(F)F,"cell growth, CellTiter-Glo",,66.7 µM and 59.7 µM
CCCCCCCCCCCC(=O)Oc1c(C)c(OC)c2c(c1C)OC(=O)[C@@H](CCCCCCCCCC)[C@]2(O)/C=C/c1ccccc1 (relative stereo),"cell growth or viability, SRB",72 h,> 50 µM
Clc1ccc(C(Cn2ccnc2)OCc2ccc3ccccc3c2)c(Cl)c1 (centres unmarked),"cell growth or viability, MTT",24 h,39.8 µM
CC[C@H](C)/C=C/C=C/C=C/C(O)=C/C(=O)C(F)(Cl)Cl,"cell growth, CellTiter-Glo",,15.8 µM
COc1ccc(CNC[C@@](O)(COCc2ccccc2)[C@@H]2CC[C@@H](C)C[C@H]2OCc2ccccc2)cc1,"cell growth or viability, MTT",72 h,3.15 µM
CCCc1cc2cc(-n3nc(CC)c4c3CC(C)(C)CC4=O)cc(N3CCC(O)CC3)c2c(=O)[nH]1,"cell growth or viability, MTS",,1.53 µM
COc1ccccc1CNC[C@](O)(COCc1ccccc1)[C@@H]1CC[C@@H](C)C[C@H]1OCc1ccccc1,"cell growth or viability, MTT",72 h,2.45 µM
COC1CC(=O)C2C(O)C=CC(O)C2C12Oc1cccc3cccc(c13)O2 (centres unmarked),"cell growth or viability, resazurin",72 h,12.6 µM
O=C(CN1CCCCC1)N1CCN(CC(OCc2ccc3ccccc3c2)c2ccc(Cl)cc2Cl)CC1 (centres unmarked),"cell growth or viability, MTT",24 h,8.08 µM
Cc1ccnc(-c2cc(C(=O)O)ccn2)c1.F[P-](F)(F)(F)(F)F.F[P-](F)(F)(F)(F)F.[Ru+2].c1ccc(-c2ccccn2)nc1.c1ccc(-c2ccccn2)nc1,cell viability,"48 h, light irradiation 2.5 min",> 100 µM
CCCc1cc2cc(-n3nc(N)c4c3CC(C)(C)CC4=O)cc(N3CCC(O)CC3)c2c(=O)[nH]1,"cell growth or viability, MTS",,> 50 µM
NC(NN=Cc1ccc([N+](=O)[O-])o1)=[S+][Au-][Cl],"cell growth or viability, resazurin",,35.7 µM
CC(=O)[O][Pd][c]1cc(Cl)ccc1N1N=C(C)C(C)(C)C1=O.CC(=O)[O][Pd][c]1cc(Cl)ccc1N1N=C(C)C(C)(C)C1=O,"cell growth or viability, MTT",,> 100 µM
CCCc1cc2cc(-n3cc(C)c4c3CC(C)(C)CC4=O)cc(N3CCC(O)CC3)c2c(=O)[nH]1,"cell growth or viability, MTS",,7.28 µM
Cc1ccc([N+](=O)[O-])cc1S(=O)(=O)N(C)/N=C/c1cnc2ccc(Br)cn12,cell growth or viability,,0.466 µM
CCN1CCN(CC(=O)N2CCN(CC(OCc3ccc4ccccc4c3)c3ccc(Cl)cc3Cl)CC2)CC1 (centres unmarked),"cell growth or viability, MTT",24 h,37.6 µM
CCCN1C(=O)CS/C1=N\N=C\c1cccc2cc3ccccc3nc12,"cell growth or viability, MTT",48 h,> 50 µM
Cc1cnc(Nc2ccc3c(c2)CCN(C(=O)/C=C/C(=O)C2CCC(C)CC2)C3)nc1-c1cnn(C(C)C)c1 (centres unmarked),"cell growth or viability, MTT",48 h,0.67 µM
CC(=O)OC[C@H]1O[C@@H](Oc2ccc(C#[C][Pt+])cc2)[C@H](OC(C)=O)[C@@H](OC(C)=O)[C@@H]1OC(C)=O.O=S(=O)([O-])C(F)(F)F.c1ccc(-c2cccc(-c3ccccn3)n2)nc1,cell growth or viability,24 h,> 100 µM
CC[C@H](C)/C=C/C=C/C=C/C(O)=C/C(=O)C(F)(F)F,"cell growth, CellTiter-Glo",,28.4 µM
COc1ccc(C(=O)N2CCN(CC(OCc3ccc4ccccc4c3)c3ccc(Cl)cc3Cl)CC2)cc1 (centres unmarked),"cell growth or viability, MTT",24 h,40.6 µM
CCCc1cc2cc(-n3c4c(c5ccccc53)C(=O)CC(C)(C)C4)cc(N3CCC(O)CC3)c2c(=O)[nH]1,"cell growth or viability, MTS",,8.63 µM
CCOC(=O)/C=C1\S/C(=N\N=C\c2cccc3cc4ccccc4nc23)N(C)C1=O,"cell growth or viability, MTT",48 h,> 50 µM
CC(=O)[O][Pd][c]1ccccc1-n1nc(C)cc1C.CC(=O)[O][Pd][c]1ccccc1-n1nc(C)cc1C,"cell growth or viability, MTT",,39.2 µM
O=C(c1ccncc1)N1CCN(CC(OCc2ccc3ccccc3c2)c2ccc(Cl)cc2Cl)CC1 (centres unmarked),"cell growth or viability, MTT",24 h,37.2 µM
O=C1C=CC2(Oc3cccc4cccc(c34)O2)c2ccccc21,"cell growth or viability, resazurin",72 h,3.1 µM
CC(=O)N[C@@H](CCCNC(=N)N)C(=O)N[C@@H](Cc1c[nH]c2ccccc12)C(=O)N[C@@H](CCCNC(=N)N)C(=O)N[C@@H](Cc1c[nH]c2ccccc12)C(=O)N[C@@H](CCCNC(=N)N)C(=O)N[C@@H](Cc1c[nH]c2ccccc12)C(N)=O,cell viability,"48 h, light irradiation 2.5 min",> 100 µM
CCCC(=O)Oc1c(C)c(OC)c2c(c1C)OC(=O)[C@@H](CC)[C@]2(O)/C=C/c1ccccc1 (racemic),"cell growth or viability, SRB",72 h,> 50 µM
COC(=O)N1c2ccc3c(nc(Cc4ccccc4)n3[C@@H]3CCC[C@@H](C(=O)O)C3)c2CC[C@@H]1C,"cell growth or viability, ATP luminescence",10 days,2.16 µM
CCNC(NN=Cc1ccc([N+](=O)[O-])o1)=[S+][Au-][Cl],"cell growth or viability, resazurin",,26.8 µM
COc1cccc(CNC[C@@](O)(COCc2ccccc2)[C@@H]2CC[C@@H](C)C[C@H]2OCc2ccccc2)c1,"cell growth or viability, MTT",72 h,16.8 µM
COc1ccc2c(c1)/C(=N/NC(N)=S)C(=O)N2CCn1cnc2c(N)ncnc21,"cell growth or viability, SRB",72 h,29.9 µg/mL
CC(C)(C)OC(=O)N1CCN(CC(OCc2ccc(Br)cc2)c2ccc(Cl)cc2Cl)CC1 (centres unmarked),"cell growth or viability, MTT",24 h,26.2 µM
CCCCCCCCCCCC(=O)Oc1c(C)c(OC)c2c(/C=C/c3ccccc3)c(CCCCCCCCCC)c(=O)oc2c1C,"cell growth or viability, SRB",72 h,> 50 µM
CCOC(=O)/C=C1\S/C(=N\N=C\c2cccc3cc4ccccc4nc23)N(c2ccc(F)cc2)C1=O,"cell growth or viability, MTT",48 h,> 50 µM
CCCCCC(=O)Oc1c(C)c(OC)c2c(c1C)OC(=O)[C@@H](CCCC)[C@]2(O)/C=C/c1ccccc1 (relative stereo),"cell growth or viability, SRB",72 h,> 50 µM
C[C@@H]1CC[C@@H]([C@](O)(CNCc2ccccc2F)COCc2ccccc2)[C@H](OCc2ccccc2)C1,"cell growth or viability, MTT",72 h,2.94 µM
Clc1ccc(C(Cn2cnc3ccccc32)OCc2ccc(Br)cc2)c(Cl)c1 (centres unmarked),"cell growth or viability, MTT",24 h,> 50 µM
